Results of several laboratories.
Numbered parts are unrelated; each lists some results of a single study.

Series 1
Target: Sal-like protein 4, full length isoform B (SALL4, Homo sapiens, UniProt Q9UJQ4-2, residues 1-616)
Technique: universal PBM
Molecule type: double-stranded DNA, one strand shown
Medium: in vitro
Concentration: not given
Notes: 8-mer, flanks averaged, mean of replicates
Direction: higher = stronger binding
Strand	E-score
CAGTTGAG	-0.182
ATTTCTTC	0.184
CAGTCGGG	-0.227
ACGACAGG	-0.127
GGTTCGAC	-0.151
ATAGTAGG	0.106
CTTAAATC	0.113
AGCCGTAG	-0.234
CTACGTCC	-0.0647
TGCCCGCA	-0.215
ACCCCTGC	-0.189
ATCCAGTA	0.0309
GAGTAGCA	-0.00878
CCGGGCTA	-0.421
ACAACCAA	0.0231
ACGAGGCA	-0.0224
GAGCCATC	-0.281
GAACACGA	0.115
GGAGTGGA	-0.00109
CCCCTCGA	-0.168
GGATTCTA	0.0647
CGAACGCC	-0.269
AAACACAA	0.274
TCATACAA	0.278
CGGAACGA	-0.14

Series 2
Target: RNA binding protein fox-1 homolog 2, RRM domain, GST-SBP tag (RBFOX2, Homo sapiens, UniProt O43251-10, residues 100-194)
Technique: RNA Bind-n-Seq
Molecule type: RNA
Medium: in vitro
Concentration: 365 nM
Notes: natural RNA segment, single round, ends assumed
Baseline: no-protein control
Direction: higher = stronger binding
Construct (chain): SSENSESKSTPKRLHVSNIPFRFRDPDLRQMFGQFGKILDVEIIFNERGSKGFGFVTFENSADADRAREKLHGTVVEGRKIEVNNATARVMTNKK
Strand	RBNS enrichment (R)
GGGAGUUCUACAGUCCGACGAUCACACUACUGCACCGCACCGCACCCAGAAAGAACUUUCUCCCCAGCGGUGACGACUGCUCCAUGGGGAAGCUAAAAUAUCCUCGCCAGUUCCGGAGCACCCUUGUGAAGAAUGGAAUUCUCGGGUGCCAA	1.95
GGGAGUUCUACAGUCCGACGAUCGCUUCCCCCCAGAGGGCAGUGGGGAUGCCUCCAGCCCCAGCCCCAAAUGGUGCUGCUACUGGAUCAGAUUGUGAACGGUUAACUCUGCCCUGAAGUGGGGGUGCGGGAAUUGGAAUUCUCGGGUGCCAA	0.456
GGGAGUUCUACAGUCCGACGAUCUCUUUCUUUUAAAACUUGUUUCAUUUAUGAUCAUGUAGAGAGCCACUAGGAGGCCUGCAGUUAUUUUUGAAUGUGAAAAUGCAUUUGCGUUCAUCUUGUCUAUUUUUUCUUGGAAUUCUCGGGUGCCAA	0.559
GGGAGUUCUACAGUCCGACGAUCCAUCUCCAGGAGCUGGCCAGUUAUCUUAGAAAACAACUGAAUGGAAUAUUUUUGUACCUGAUGUUUCCAGAUGUUGGGAAGUUAUCAAUAAAGACUGUUGUUAAAAGGGAUGGAAUUCUCGGGUGCCAA	0.686
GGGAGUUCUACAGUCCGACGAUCUGGGUAUGUGUAGGUCAAAUCAAAUGACAGAUGAUUUUUUUAAUGUGAAUAAAGUUAUGUUCAGAUAGUUUGUACAGAAAAAAUAAUAAUAAAAUGGAUGCCCUUCAUGUUGGAAUUCUCGGGUGCCAA	0.954
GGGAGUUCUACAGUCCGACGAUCUUUGGUGCUGUGUGUGGUAAGAGACUUGUUCCUAGUGGAUCAAUGAACCAUCUCUUCUGGGCAGUUUUGUUGAAAAUAAAGGUUUCUCUUUGAUUUCAAGAAUGACCAAAUGGAAUUCUCGGGUGCCAA	0.357
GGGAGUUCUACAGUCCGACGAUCUCCUAAAAGUAACAGGUUUCGUGUGAGUGUGCUUGUAUACGUGAGAUUUGCCUUAUUUUCAGGUUGUUUUAUUUAACGAUGGUUCCUUGGACAGCAUUCUGGUGUUCAGCUGGAAUUCUCGGGUGCCAA	8.82
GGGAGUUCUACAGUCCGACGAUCCCACUGUUAGCCCAUUAUAUUCAUUCCAAUUAGAAGAAAUGUGAAUACUAUAUUCCGUGUUUUGAGUGACAAGUUUCGAAAAAUAAAAACACUGUAUUUUUAAAAGGGAAUGGAAUUCUCGGGUGCCAA	0.447

Series 3
Target: RING finger protein unkempt homolog, zinc fingers 1-6, GST-SBP tag (UNK, Homo sapiens, UniProt Q9C0B0, residues 30-357)
UniProt Q9C0B0, sequence (30-357, looked up): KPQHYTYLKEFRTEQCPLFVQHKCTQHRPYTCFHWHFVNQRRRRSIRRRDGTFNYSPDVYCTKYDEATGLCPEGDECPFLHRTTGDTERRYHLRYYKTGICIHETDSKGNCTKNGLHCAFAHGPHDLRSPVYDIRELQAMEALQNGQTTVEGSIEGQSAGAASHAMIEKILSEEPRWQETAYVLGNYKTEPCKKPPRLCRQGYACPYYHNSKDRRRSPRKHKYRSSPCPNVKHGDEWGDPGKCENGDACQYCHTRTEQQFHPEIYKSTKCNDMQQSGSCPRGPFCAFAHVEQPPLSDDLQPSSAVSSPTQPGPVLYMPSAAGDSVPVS
Technique: RNA Bind-n-Seq
Molecule type: RNA
Medium: in vitro
Concentration: not given
Notes: RNA with constant flanks, human-mouse chimeric sites, ends assumed
Baseline: input RNA pool
Direction: higher = stronger binding
Strand	bound/input enrichment
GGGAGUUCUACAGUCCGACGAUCUCUGGUCACACUCGUGUGUAUGGUGUUUGCUUUGUGGAUACUUCACUGGGCAAGUUUUUCAUCGGCCAGUUUUCGGAUGACCGCCACUGUUCCAGAUUUAGGACUCUAGUGGCUCACUAUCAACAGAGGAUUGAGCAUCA	0.147 ratio
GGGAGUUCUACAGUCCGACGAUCGCCACCAGAUCCCAGAAACAUGACCCUUGCUGCCUACAAAGAGAAGAUGAAGGAACUCCCGCUGGUGUCCUUGUUCUGCUCCUGCUUCCUGGCCGAUCCCCUGAAUAAGUCGUCCUACAACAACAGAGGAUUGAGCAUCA	0.37 ratio
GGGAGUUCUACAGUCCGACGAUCCAGGGCAUCAUCUCUCGUGCUGUUAGACACCUGUUCAAGAGUAUUGAUGAGAAAAAGCACAUAGCAAUUAAAAACGGGCUUCCUGCUCCUGAAUUCAAAGUGAAUGCCCAGUUCCUAGAGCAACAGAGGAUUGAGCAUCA	0.803 ratio
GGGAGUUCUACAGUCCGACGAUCCUGGCACUGUAUCAGAUAUAUUAAUUUUUUAAUGUAGAUGUAAUUUUAAAAAUGAAUGGCUACUUUACACGUUUAACUAGGGUUUUACUAUAUAUGUGUGUGUAUAUAUAUAUAUAUAUACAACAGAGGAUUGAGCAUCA	21.3 ratio
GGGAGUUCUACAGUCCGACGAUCACACAAUAUGAGACCAACAGCUUGGACUUCAAAGUUGGGGCAGAUGGGACAGUCUUCGCCACCCGGGAGCUGCAGGUCCCCUCCGAGCAGGUGGCGUUUACCGUCACUGCAUGGGACAGCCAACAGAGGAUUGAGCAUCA	0.206 ratio
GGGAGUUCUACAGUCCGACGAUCGGAAUUGCUGAUUCAAGUAAGUUUGAGUAUCACAAUGUUAGCUUUCUAAUUCCAUAAAGAUAGUUUUUUUUUACAGUUUAUAAUCUGACAUCACCCCAGCGCCAUUUGUAAAGAGCAACUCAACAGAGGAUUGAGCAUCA	6.58 ratio
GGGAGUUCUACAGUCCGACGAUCGGACCAUAAUCAUGGAGGACAUAAUGCAGCUCCCCAAAGCGCGCGUCAACGCCAGCAUGUUACCACAGUAUAUCGACAAGCCUGUCUGCUUCGUGGGGAAGCUGGAAAAGAUUCAUCCCACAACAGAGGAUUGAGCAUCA	0.164 ratio
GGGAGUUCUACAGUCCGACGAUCCCUCUGCCCCGCUCUGCAGCCUGGGGACACUGGGCUGGGACCAGAAUCCAGCUUUCUUUUAAAACUCUCAGUGUAACUGUAUCCCGUGACAUUUCAUUUUUUUUAAAUAGUGUAUUUUUUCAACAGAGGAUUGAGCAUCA	2.86 ratio

Series 4
Target: Histone acetyltransferase KAT6A, both winged helices, GST fusion (KAT6A, Homo sapiens, UniProt Q92794, residues 1-181)
Technique: protein binding microarray
Molecule type: double-stranded DNA, one strand shown
Medium: in vitro
Concentration: not given
Notes: 8-mer, flanks averaged, mean of 2 arrays, mostly near background
Baseline: not given
Direction: higher = stronger binding
Construct (chain): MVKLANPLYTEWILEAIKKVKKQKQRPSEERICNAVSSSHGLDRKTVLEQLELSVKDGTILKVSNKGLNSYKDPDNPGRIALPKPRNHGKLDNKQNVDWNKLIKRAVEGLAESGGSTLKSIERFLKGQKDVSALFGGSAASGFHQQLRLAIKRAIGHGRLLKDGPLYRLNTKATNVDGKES
Strand	E-score
AGTAAGGA	-0.0861
CCCGGCGA	0.276
GACGTAAA	0.0548
ACCTAAGG	-0.139
CGGACTAC	0.117
AGGAAATC	-0.0775
CACCTTCC	-0.0775
AAAGTTAT	-0.0156
AACAAGTA	-0.145
GTCGCCAA	-0.0256
GCAACGAC	0.0584
ACGCGACT	0.0454
CGCGGTAA	0.358
CGAAGCTC	-0.0636
CTGATAAA	-0.138
GCCGTGTA	0.266
ATCATGGA	-0.0845
TAGGGAGA	-0.0724
TGGTAAAA	-0.115
ACCTCGCG	0.235
AGTTGTGG	-0.114
CAACACGG	0.136
GCGTGCAA	0.132
AGAGGTAA	-0.175

For quick reference, copied from above (series 4):
Strand	E-score
GCCGTGTA	0.266
ATCATGGA	-0.0845
TAGGGAGA	-0.0724
TGGTAAAA	-0.115
ACCTCGCG	0.235
AGTTGTGG	-0.114
CAACACGG	0.136
GCGTGCAA	0.132
AGAGGTAA	-0.175
